Measurements of several laboratories.
Numbered parts are unrelated; each lists some results of a single study.

Series 1
Target: Centromere-binding protein 1, full length, His-tagged (CBF1, Saccharomyces cerevisiae, UniProt P17106, residues 1-351)
UniProt P17106, sequence (whole entry, looked up): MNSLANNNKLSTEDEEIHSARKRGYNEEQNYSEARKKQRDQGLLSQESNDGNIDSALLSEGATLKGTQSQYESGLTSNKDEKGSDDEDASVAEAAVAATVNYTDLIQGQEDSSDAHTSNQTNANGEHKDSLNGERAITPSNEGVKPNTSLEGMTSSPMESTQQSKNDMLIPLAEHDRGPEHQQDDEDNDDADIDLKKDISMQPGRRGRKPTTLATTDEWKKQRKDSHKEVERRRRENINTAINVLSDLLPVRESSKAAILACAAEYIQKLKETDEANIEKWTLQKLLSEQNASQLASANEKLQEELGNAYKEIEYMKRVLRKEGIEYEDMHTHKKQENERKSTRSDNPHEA
Technique: competition protein-binding microarray
Molecule type: double-stranded DNA, one strand shown
Sample: in vitro
Concentration: 2 µM
Notes: whole 60-bp probe, lowest competitor level
Together with: Pho4 competitor, 0.05 µM
Reading: higher = stronger binding
Measurement: fluorescence intensity
Shared flanks, not repeated: … GTCTTGATTCGCTTGACGCTGCTG
CATACCCAACCTTGCCGAGTGGGTGAAGATATTTGT: 69.1 a.u.
GCCGTTTTGCTCCGGGTCGTGCCGACGTAAATCCAT: 63.9 a.u.
CTTTCCCGATCTTTTCACGTGGGTTTAGCACATTTG: 686 a.u.
GGTAATATTTTTACCACCGTGCGGACTTTCAATGGC: 94.9 a.u.
AAGTTAATCGTCGAGACCGTGACGGATCTTAAGCGC: 77.5 a.u.
TCATTATTGAAAGTGAACGTGATTGTGAACCGCTTG: 292 a.u.
CGTCCTAGTGATTGTCACCTCACTTCCATGAGGAAG: 81.7 a.u.
TTGGTGAAGGTTCCTCTCGTGAAGACGCTGCTTTGG: 67.6 a.u.
TCTCTTCTTGGTACCGGCGTGATGGATTTGAAGCTA: 105 a.u.
CTAACGAAGGTTTTTCACGTGACGTACAAGCCAAGT: 3120 a.u.
ATCTGGGATTGAAGACACATGAGTTTTTTTCTCACC: 104 a.u.
TCAGGCATCGTCTCTCACGTGAAATCTGTGGGGGCA: 1220 a.u.
CGCTACCAGAAACGATGCGTGCAAAGACCAGTGTTT: 87.8 a.u.
AAGGTAGCCAAGAATACCGTGATGGTTGCTTAGTAT: 102 a.u.
TGCTGGATTAGGGAACACGTGGAAAGGGCTAGACCA: 1030 a.u.
AAATTACTAAGTTTTCACGTGACATACCCCGTATGA: 5510 a.u.
CATACCCAACCTTGGAATGTGGGTGAAGATATTTGT: 57.9 a.u.
CCAGTAGAGTGGTAAAGCGTGCCTACGGCGGTGTTG: 71.8 a.u.
CGGGGTTAAGTTTGCTCCGTGGGTGGCTTGCAGCAG: 59.2 a.u.

Series 2
Target: Sal-like protein 4, full length isoform A (SALL4, Homo sapiens, UniProt Q9UJQ4, residues 1-1053)
UniProt Q9UJQ4, sequence (whole entry, looked up): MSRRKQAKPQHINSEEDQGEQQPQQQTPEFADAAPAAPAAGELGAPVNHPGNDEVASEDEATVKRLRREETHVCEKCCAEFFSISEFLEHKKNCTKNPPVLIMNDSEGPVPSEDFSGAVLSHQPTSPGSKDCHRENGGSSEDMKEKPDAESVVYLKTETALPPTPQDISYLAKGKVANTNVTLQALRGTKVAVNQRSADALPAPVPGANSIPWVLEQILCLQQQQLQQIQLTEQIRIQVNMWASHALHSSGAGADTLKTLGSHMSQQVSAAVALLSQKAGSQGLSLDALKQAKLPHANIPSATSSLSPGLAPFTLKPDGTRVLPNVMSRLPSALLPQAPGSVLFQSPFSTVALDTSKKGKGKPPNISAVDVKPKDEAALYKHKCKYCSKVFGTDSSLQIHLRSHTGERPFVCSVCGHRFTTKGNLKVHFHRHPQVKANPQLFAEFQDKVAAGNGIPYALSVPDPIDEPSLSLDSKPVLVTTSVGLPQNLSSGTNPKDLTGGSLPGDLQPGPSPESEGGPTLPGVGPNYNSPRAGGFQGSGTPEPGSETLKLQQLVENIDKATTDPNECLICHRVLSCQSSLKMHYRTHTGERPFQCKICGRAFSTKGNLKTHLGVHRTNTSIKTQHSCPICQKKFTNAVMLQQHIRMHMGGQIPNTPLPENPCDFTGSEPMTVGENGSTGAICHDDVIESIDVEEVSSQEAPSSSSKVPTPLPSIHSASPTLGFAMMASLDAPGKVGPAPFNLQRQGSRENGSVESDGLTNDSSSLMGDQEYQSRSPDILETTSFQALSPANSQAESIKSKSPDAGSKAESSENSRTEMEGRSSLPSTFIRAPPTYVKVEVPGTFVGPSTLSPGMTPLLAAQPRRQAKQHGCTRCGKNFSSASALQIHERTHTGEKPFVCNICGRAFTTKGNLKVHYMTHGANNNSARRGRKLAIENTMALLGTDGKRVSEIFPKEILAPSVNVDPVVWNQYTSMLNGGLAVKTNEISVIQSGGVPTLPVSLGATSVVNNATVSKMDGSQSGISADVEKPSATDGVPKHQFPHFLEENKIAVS
Technique: universal PBM
Molecule type: double-stranded DNA, one strand shown
Sample: in vitro
Concentration: 600 nM
Notes: 8-mer, flanks averaged, mean of replicates
Reading: higher = stronger binding
Measurement: E-score
CTTGGGCA: -0.174
TAAGCACA: 0.0412
ACGTGTAA: 0.156
AACGGGTA: 0.0289
CGGGATAC: -0.236
CTCAGCCA: -0.202
AGTATTCC: 0.149
CTGTACAG: 0.105
AACAGTAC: 0.112
GCTGGCCC: -0.414
GGCACACC: -0.339
AAATTACA: 0.326
AAGCTACT: 0.05
GCCTGGTA: -0.193
GCTAGCTA: -0.175
AACTAGGT: 0.0341
AGCGTTGA: -0.0727
TATTGGAA: 0.281
AATATCAT: 0.377
CCATGCCA: -0.149
ACAACTAC: 0.113

Series 3
Target: RING finger protein unkempt homolog, zinc fingers 1-6, GST-SBP tag (UNK, Homo sapiens, UniProt Q9C0B0, residues 30-357)
UniProt Q9C0B0, sequence (30-357, looked up): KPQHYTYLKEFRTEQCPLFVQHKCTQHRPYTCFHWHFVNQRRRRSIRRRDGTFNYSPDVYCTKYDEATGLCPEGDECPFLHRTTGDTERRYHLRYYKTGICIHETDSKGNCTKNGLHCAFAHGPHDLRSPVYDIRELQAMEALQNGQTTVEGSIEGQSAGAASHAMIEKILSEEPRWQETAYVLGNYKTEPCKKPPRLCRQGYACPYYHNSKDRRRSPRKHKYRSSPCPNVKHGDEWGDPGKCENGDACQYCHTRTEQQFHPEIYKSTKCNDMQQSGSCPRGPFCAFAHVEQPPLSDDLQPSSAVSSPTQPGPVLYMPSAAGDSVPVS
Technique: RNA Bind-n-Seq
Molecule type: RNA
Sample: in vitro
Concentration: not given
Notes: RNA with constant flanks, human and mouse sites, ends assumed
Reference: input RNA pool
Reading: higher = stronger binding
Measurement: bound/input enrichment
Shared flanks, not repeated: GGGAGUUCUACAGUCCGACGAUC … CAACAGAGGAUUGAGCAUCA
GAUGAUAAUCACACAAAUGUGGCACUUUUAUGUGACCAGAGUUGUACUUCUUCUCCUGAUUAGUAUUCUCCCUGGAACCACUAGCCAAGGGGAAUCAAGACGACAAGAACCUGGGGACUU: 0.188 ratio
CAUGCCCACCCACUCAACCCACUGUGGGUCACAUUGCUCACAUCUUUUUAAUCUUUGUUCCUUUCCUGCCUCCAUUUCAAGAGCUGGGUUUGUAAGCCCUCUUAUGCCUUCAAUGCACUU: 0.483 ratio
GCAUUUAUCUUUUUUCCUAGUUUUUCUAAUACUAAUGUUAUUUCUUAAAAUUCAGUGAGAUAUAGGAUAAAAUAAUGCUUUGAGAAGAAUGUUUAAUAGAAAAUUAAAAUAACUUUUUCU: 2.53 ratio
GAAAUGAAGUACUACAUAGUGCAUUUGAAACGCCACUUUAUGUUUCGAAACCAUCUCUGUUUAGUGUUUGAAAUGCUGUCCUAUAAUCUCUAUGAUUUGUUGAGAAACACCAACUUCCGA: 0.296 ratio
AGCAAGGUGGUACAGAAGUUGGUCCUGCCCUUUGGGCGACUGAACUACCUGCCCCUGGAACAGCAGUUUAUGCCCUGCCUUGAGAGGAUCCUGGCUCGGGAAGCAGGGGUGGCACCCCUG: 0.153 ratio
AAGAUCGGAUUUCCAGAAACAGCAGAGGAAGAGCUGGAAGAAAUUGCUUCAGAGAAUUCAGAUUCCAUCUAUUCAUCAACUCCUGAAGUUAAGGCCUGAGCAUCAGACGUGUGCUGCCGA: 0.143 ratio
GCUUUUGAUGACGCAAUUGCAGAACUGGACACGCUGAGUGAAGAAAGCUAUAAGGACUCUACGCUCAUCAUGCAGCUGCUACGUGAUAACCUGACGCUGUGGACCUCAGACAUGCAGGGU: 0.123 ratio
AUUAAGCUUUAUGAAAACUUCAUCAGUGAGUUUGAGCACAGGGUAAACCCUCUGUCCCUGGUAGAAAUAAUUCUCCAUGUGGUUAGACAGAUGACCGAUCCUAAUGUGGCUCUUACUUUU: 0.271 ratio

Series 4
Target: Fragile X messenger ribonucleoprotein 1, C-terminal low-complexity region (Fmr1, Mus musculus, UniProt P35922)
Technique: RNA Bind-n-Seq
Molecule type: RNA
Sample: in vitro
Concentration: 200 nM
Notes: whole 134-nt RNA, ends assumed
Together with: 150 mM LiCl
Reference: input library
Reading: higher = stronger binding
Measurement: log2 enrichment
All molecules: 7-deaza-guanosine replaces G
Shared flanks, not repeated: GGGAGUUCUACAGUCCGACGAUC … UGGAAUUCUCGGGUGUCAAGG
GCAGGAAGUAAAAACAAAUGGAAAUGCUUCGGAUAGUGGCAGGGGUGGGGGUGGCUAAGGAAAGGGUGGGAUGGGAGUGGGUAAAGAGUU: 1.43
GCAGGAAGUAAAAACAAAUGGAAAUGCUUCGGAUAGUGGCAGGGGUGGGGGUUGCUAAGGAAAGGGUGGGAUGGGAGAGGGUAAAGAGUU: 1.75
CAAGUCCUGUGCUACACAUCGUAUGUACCGAAUCGGCCCCGGCCCCGGGGCCCCGGAAAGUAUUAUGUUACGCCGUUCGGAUCUGCACUU: -3.09
CUCAAGUCCUGUGCUACACAUCGUAUGUACCGAAUCGGGGAGGGGAGGGAGGGAAAGUAUUAUGUUACGCCGUUCGGAUCUGCACUUCCA: -0.292
GCAGGAAGUAAAAACAAAUGGAAAUGCUUCGGAUGGUGGCAGGGGUGGGGGUUGCUAAGGAAAGGGUGGGAUGGGAGUGGGUAAAGAGUU: 1.24
GUCCUGUGCUACACAUCGUAUGUACCGAAUCGGGGUUUUUGGGGUUUUUGGGGAGGGGAAAGUAUUAUGUUACGCCGUUCGGAUCUGCAC: -0.012
CAAGUCCUGUGCUACACAUCGUAUGUACCGAAUCGGUUUGGAAAAAAAGGAAAGGAAAGUAUUAUGUUACGCCGUUCGGAUCUGCACUUC: -1.65
UUAAAGUAGAGGAACAAAAAGAAGAACAGAAGGAGUUAGAGAAAUCUGAAAAAGAAGAGGAUGAGGAUGAUGAUAGGAAAUCUGAAGACG: -0.23

Repeated from above (series 1):
CCAGTAGAGTGGTAAAGCGTGCCTACGGCGGTGTTG: 71.8 a.u.
CTTTCCCGATCTTTTCACGTGGGTTTAGCACATTTG: 686 a.u.
CTAACGAAGGTTTTTCACGTGACGTACAAGCCAAGT: 3120 a.u.
TGCTGGATTAGGGAACACGTGGAAAGGGCTAGACCA: 1030 a.u.
TTGGTGAAGGTTCCTCTCGTGAAGACGCTGCTTTGG: 67.6 a.u.
